Published values of several laboratories.
Each numbered part is a random draw from the data of one study; scales do not carry over between parts. Changes are numbered by the printed parent chain.

Study 1
Target: ABI1, truncated, D143A, DHFR fusion (Arabidopsis thaliana)
Method: DHFR PCA, deep sequencing
Sample: yeast
Notes: methotrexate growth selection, single substitutions
Added: (+)-ABA 4.8 µM
Baseline: wild-type fitted maximum
Reading: higher = stronger binding
Measurement: relative binding score
Starting sequence: PYL1, truncated, DHFR fusion (Arabidopsis thaliana); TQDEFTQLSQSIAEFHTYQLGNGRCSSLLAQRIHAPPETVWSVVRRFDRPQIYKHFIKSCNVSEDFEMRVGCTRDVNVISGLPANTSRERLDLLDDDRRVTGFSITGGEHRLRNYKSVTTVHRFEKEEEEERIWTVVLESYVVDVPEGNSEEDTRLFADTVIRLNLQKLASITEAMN
Variant = R111S; value = 4.06%
Variant = F5Q; value = 64.6%
Variant = R163K; value = 80.2%
Variant = E67H; value = 62.2%
Variant = T86M; value = 57.2%
Variant = T73M; value = 80.6%
Variant = I172R; value = 2.62%
Variant = N149A; value = 30.6%
Variant = H122I; value = 0.585%
Variant = P37D; value = -4.72%
Variant = T120N; value = 7.19%
Variant = A30R; value = 58.9%
Variant = E174H; value = 22.5%
Variant = A84W; value = 79.2%
Variant = P37M; value = 23.7%
Variant = T119D; value = 4.08%
Variant = F15W; value = 74.8%

Study 2
Target: Prothrombin, mature alpha-thrombin (F2, Homo sapiens, UniProt P00734)
Method: aptamer microarray, sandwich
Molecule type: DNA with 2'F-ANA
Sample: in vitro
Tested at: 200 nM
Notes: whole 15-mer aptamer, many near background
Added: Cy3 exosite-II aptamer, 400 nM
Reading: higher = stronger binding
Measurement: mean fluorescence intensity
Strand: GGTTGGTGTGGTTGG
Modification = 2'F-ANA at 1 2 3 4 5 8 9 11 12 15; value = 107 a.u.
Modification = 2'F-ANA at 1 2 5 9 11 13 14 15; value = 47.2 a.u.
Modification = 2'F-ANA at 1 3 4 5 7 9 14 15; value = 103 a.u.
Modification = 2'F-ANA at 4 5 8 9 10 12 14 15; value = 70 a.u.
Modification = 2'F-ANA at 3 4 5 6 7 8 10 12 15; value = 63.6 a.u.
Modification = 2'F-ANA at 1 2 5 7 8 10 14 15; value = 47.4 a.u.
Modification = 2'F-ANA at 1 2 6 7 8 11 12 13; value = 272 a.u.
Modification = 2'F-ANA at 1 7 8 9 10 11 12 13 14 15; value = 96.1 a.u.
Modification = 2'F-ANA at 1 2 3 4 5 8 9 11 12 13; value = 66.8 a.u.
Modification = 2'F-ANA at 6 7 9 11; value = 360 a.u.
Modification = 2'F-ANA at 1 2 5 6 11; value = 51.8 a.u.
Modification = 2'F-ANA at 4 5 6 7 10 12 15; value = 49.1 a.u.
Modification = 2'F-ANA at 1 3 4 10 12 14 15; value = 50.5 a.u.
Modification = 2'F-ANA at 1 4 5 6 7 8 10 11 12 14 15; value = 52.1 a.u.
Modification = 2'F-ANA at 4 6 9 11 13 14 15; value = 129 a.u.
Modification = 2'F-ANA at 1 2 3 4 6 11 15; value = 129 a.u.
Modification = 2'F-ANA at 4 9 11 12 14; value = 106 a.u.
Modification = 2'F-ANA at 1 3 5 6 8 10; value = 47.8 a.u.
Modification = 2'F-ANA at 4 11 12 13 14 15; value = 103 a.u.
Modification = 2'F-ANA at 1 3 5 6 7 9 11 12 14; value = 46.6 a.u.
Modification = 2'F-ANA at 3 4 5 7 8 11 14 15; value = 64.6 a.u.
Modification = 2'F-ANA at 1 8 9 11 12; value = 350 a.u.
Modification = 2'F-ANA at 2 3 4 5 6 7 9 11 12 14 15; value = 51.1 a.u.
Modification = 2'F-ANA at 2 3 4 5 8 10 11 13; value = 48.7 a.u.
Modification = 2'F-ANA at 2 4 8 9 13 15; value = 199 a.u.

Study 3
Target: RING finger protein unkempt homolog, zinc fingers 1-6, SBP tag (UNK, Homo sapiens, UniProt Q9C0B0, residues 30-357)
Chain of UniProt Q9C0B0 (30-357, looked up): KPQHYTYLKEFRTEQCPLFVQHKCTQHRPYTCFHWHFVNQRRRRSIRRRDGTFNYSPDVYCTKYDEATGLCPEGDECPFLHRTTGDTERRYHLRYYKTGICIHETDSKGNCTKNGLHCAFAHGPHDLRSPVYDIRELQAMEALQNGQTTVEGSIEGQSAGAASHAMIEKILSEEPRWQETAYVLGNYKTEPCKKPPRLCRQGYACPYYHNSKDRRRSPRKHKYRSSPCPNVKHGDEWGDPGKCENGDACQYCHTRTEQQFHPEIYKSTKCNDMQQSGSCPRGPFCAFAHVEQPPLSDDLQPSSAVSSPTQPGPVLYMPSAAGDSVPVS
Method: RNA Bind-n-Seq
Molecule type: RNA
Sample: in vitro
Tested at: 100 nM
Notes: RNA with constant flanks, vertebrate orthologous sites, ends assumed
Baseline: input RNA pool
Reading: higher = stronger binding
Measurement: bound/input enrichment
All sequences stand within: GGGAGUUCUACAGUCCGACGAUC … CAACAGAGGAUUGAGCAUCA
Strand = GUUGUGACCCUUUUAACAUUCACAAAAAGUUAGCAAAAAAAAAUUUGCAUGUGAUUGACUUAGAUGAUGCCACUUUUCUGAGCGCAAAAUUUGGAAGGCAGCUAGUUCCUGGUUGGAAGC; value = 0.971 ratio
Strand = GUGACUUUGGAAGUCCGCAGUGUCUCAUUGCAGAUACUUCUUAGCUUAGGACCUGGUGGCUAGGUUGGUUCUCUCCUUUCCAAUCGGAGACCUCUACCGCAAACAUGCUUCGCCAGAUCA; value = 0.569 ratio
Strand = UGUUUUCUUAUUUUAGGUAUCAUUGCCCAGUGCCUAAGAUCUUUUAUGUUCAGCUGACUGUAGGAAAUAAUGAAUUUUUUGGUGAAGGGAAGACUCGACAAGCUGCAAGACACAAUGCUG; value = 0.956 ratio
Strand = ACACUUAUAUUGUGGCAUAUAGUCAACAUGGAAGUAGACCAGCUCUGCUGAUUUGAAAUUUAGAUUUUUUAAUUAUGUACUGGGGACAGGUUUUUGUCGCUUUACAUUGCUUCCUAGUUU; value = 3.14 ratio
Strand = GGAAAGCUACAGACCAGACUCUGAAAGUAGGAGCACAGGGUCCUGGUUGUCAUCAUCUUUGAGGAACAGAUGUACACCACUCUUCUCCAGAAGACGGAGAGAAGGAAGAGAUGAGUCUGC; value = 0.41 ratio
Strand = CAUCUCUCAUUUUAUAUGUCCAAAAAUGGCUUUGAAUUUUAAGCAAUUACUAGUUUUAAUUAGCUCUGCCCUCAUGAAGUAUUAUUAUAAUUCACCAUAAACAGCUAUCUGUCUGAAUUA; value = 1.17 ratio
Strand = AGACUUAUAUUGUGGCAUAUAGUCAACACGGAAGUAGACCAGCUCUGCUGAUUGGAAAUUUAGAUUUUUUAAUUAUGUACUGGGGACAGGUUUUUGUCGCUUUACAUUGCUUCCUAGUUU; value = 3.09 ratio
Strand = AAAUUCCCCCAUUGUCACUGAGAACCACCAAAUCUGACUUUUACAUUUGGUCUCAGAAUUUAGGUUCCUGCCCUGUUGGUUUUUUUUUUUUUUUUUUAAACAGUUUUCAAAAGUUCUUAA; value = 1.53 ratio
Strand = CUACUAUAAACAACUCAGGGCAGUAUUCUCGGUAUCCUUACAGUAACCUAAAUCAGGGAUUAGUUAACAAUACAGGGAUGAAUCAAAAUUUAGGCCUUACAAAUAACGCUCCAAUGAAUC; value = 1.12 ratio
Strand = ACAUUUAUAUUGUGGCAUAUAGUCAACAUGGAAGUAGACCAGCUCUGCUGAAUGGAAAUUUAGAUUUUUUUAAUUAUGUACUGGGGACAGGUUUUUGUCGCUUUACAUUGCUUCCUAGUU; value = 3.64 ratio
Strand = GAAAGUCCCCAUUGUCACUGAGAACCACCACAUCUGACUUUUACAUUUGGUCUCAGAAUUUAAGUUCCUGCCCUGUUGGGUUUUUUUUUUUUUUUAAACAGUUUUCAAAAGUUCUUAAAG; value = 0.744 ratio

Study 4
Target: CCND3, cyclin fold, Cln2 fusion (human)
Method: yeast growth competition, sequencing
Sample: yeast
Notes: weak parent motif
Baseline: not given
Reading: higher = stronger binding
Measurement: normalised enrichment score
Starting sequence: PKN2 docking peptide (human); VSAVRKLDFSDTM; partner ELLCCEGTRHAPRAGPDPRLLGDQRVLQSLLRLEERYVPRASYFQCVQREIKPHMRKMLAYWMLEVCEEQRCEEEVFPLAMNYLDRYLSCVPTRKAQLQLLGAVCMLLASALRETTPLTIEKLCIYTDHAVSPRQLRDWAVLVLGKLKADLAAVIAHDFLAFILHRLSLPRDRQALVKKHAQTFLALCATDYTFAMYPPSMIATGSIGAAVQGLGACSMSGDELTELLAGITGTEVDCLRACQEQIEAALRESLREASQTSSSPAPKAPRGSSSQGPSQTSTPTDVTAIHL
Variant = T12H; value = 0.94
Variant = K6R; value = 1.4
Variant = V4F; value = 0.39
Variant = V4M; value = 0.9
Variant = F9E; value = 0.174
Variant = T12D; value = 1.46
Variant = R5L; value = 0.27
Variant = K6G; value = 0.207
Variant = K6E; value = 0.427
Variant = D8S; value = 0.461
Variant = S2I; value = 0.506
Variant = F9Q; value = -0.161
Variant = R5V; value = -0.0403
Variant = D11I; value = 0.729
Variant = F9H; value = 0.111
Variant = V4T; value = 0.123
Variant = V4P; value = 0.341
Variant = V4K; value = 0.975

Study 5
Target: Histone acetyltransferase KAT6A, winged helix 1, GST fusion (KAT6A, Homo sapiens, UniProt Q92794, residues 1-85)
Method: protein binding microarray
Molecule type: double-stranded DNA, one strand shown
Sample: in vitro
Tested at: not given
Notes: 8-mer, flanks averaged, mean of 2 arrays, mostly near background
Baseline: not given
Reading: higher = stronger binding
Measurement: E-score
Construct (chain): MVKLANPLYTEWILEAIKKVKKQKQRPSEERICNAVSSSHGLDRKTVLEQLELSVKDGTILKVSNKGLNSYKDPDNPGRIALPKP
Strand = CATGCTAG; value = -0.182
Strand = ATAGATAT; value = -0.12
Strand = GCGTTACA; value = 0.0786
Strand = ACATGTGA; value = -0.0865
Strand = AATCGATA; value = -0.0929
Strand = ACATATAA; value = -0.12
Strand = CACCTTCG; value = 0.000255
Strand = CAGCACTA; value = 0.0169
Strand = AGAGTATG; value = 0.0121
Strand = ATCCTTGC; value = -0.0924
Strand = TAGGTAGA; value = -0.0674
Strand = AGCCAGAA; value = -0.216
Strand = AATTTCCA; value = -0.175
Strand = CTGTGAAA; value = -0.0633
Strand = AAGTGCCC; value = -0.14
Strand = GCCGGCCA; value = 0.292
Strand = AGATTGAA; value = -0.071
Strand = AGGTACCA; value = -0.235
Strand = ATGGGTCC; value = -0.092
Strand = AAATAGCT; value = -0.216
Strand = AGGCCCCA; value = -0.00891
Strand = ACGTATAT; value = -0.0119
Strand = GTTCTAAA; value = -0.00229
Strand = ATCACTGA; value = -0.0928
Strand = GCTGGACA; value = -0.0799

Single results of other studies
Substance = PhoQ, residues 284 288 289 292 302 303 SSTLSG; target = PhoP, residues 12 14 15 18 19 NYFTV (Escherichia coli, UniProt P23836); assay = Sort-seq, refers to: YFP reporter; test system = E. coli; setting = PhoQ-PhoP variant library, added: 10 µM Mg2+; how to read = baseline: high Mg2+ state, higher = stronger signaling; measurement = fold induction; value = 7.36
